Assay results of several laboratories.
Protocols differ between the studies behind these lines. “And” joins repeats or separate records; there may be more than shown. ± marks the error that the study gave. Converted amounts (≈) assume the structure as drawn.
Chain of UniProt P31391 (whole entry, looked up): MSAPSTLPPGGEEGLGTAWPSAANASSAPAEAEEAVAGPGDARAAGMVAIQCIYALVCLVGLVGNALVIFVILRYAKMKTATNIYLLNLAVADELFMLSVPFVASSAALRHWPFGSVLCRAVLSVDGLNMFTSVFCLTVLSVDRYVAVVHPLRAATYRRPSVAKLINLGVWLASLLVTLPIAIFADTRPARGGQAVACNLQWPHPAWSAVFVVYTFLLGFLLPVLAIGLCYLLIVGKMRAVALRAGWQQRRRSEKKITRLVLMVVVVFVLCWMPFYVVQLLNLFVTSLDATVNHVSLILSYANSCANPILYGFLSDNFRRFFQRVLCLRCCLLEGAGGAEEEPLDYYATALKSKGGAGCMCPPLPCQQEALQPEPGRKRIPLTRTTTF

| SMILES | target or system | assay | test system | setting | how to read | measurement | result |
| --- | --- | --- | --- | --- | --- | --- | --- |
| CCCCN(CCCC)CC(O)c1cc(Cl)cc2c1-c1ccc(Cl)cc1/C2=C/c1ccc(Cl)cc1 (stereo not drawn) | Plasmodium berghei | Peters suppressive test | ANKA, infected mice | oral, 4 x 30 mg/kg, day 4 | baseline: untreated control | parasitemia reduction | 99.8% |
| Nc1c([N+](=O)[O-])oc2ccc3ccccc3c12 | Mycobacterium marinum | REMA | ATCC BAA-535 |  |  | MIC90 | 4 µg/mL (≈ 17.5 µM) |
| O=[N+]([O-])c1c[nH]c(-c2nc(-c3ccc(OC4CCCC4)cc3)no2)n1 | Gram-negative bacteria |  |  | concentration not given |  | antibacterial activity | inactive |
| CC1=CC(=O)c2c(O)cccc2C1=O | Drosophila melanogaster | fluorescence |  | liquid food, 40 µg/mL, first instar larvae | baseline: solvent | fluorescein ingestion | -13.8% |
| CC(C)CNC(=O)[C@@H](N)Cc1ccc(OP2(=O)CO[C@@H](Cn3cnc4c(N)ncnc43)CO2)cc1 (stereo partly drawn) | human cytomegalovirus | viral replication |  |  |  | IC50 | 300 nM |
| COC(=O)N[C@H](C(=O)N1CCC[C@H]1c1ncc(-c2ccc(-c3ccc(-c4cnc([C@@H]5CCCN5C(=O)[C@@H](NC(=O)OC)C(C)C)[nH]4)cc3)cc2)[nH]1)C(C)C | Hepatitis C virus |  | replicon cells | 50% effect level, with: IFN-alpha, ratio 1:1 |  | combination index | 0.73 |
| N=C(N)NCCC[C@H](NC(=O)[C@@H](N)CCCNC(=N)N)C(=O)N[C@@H](Cc1c[nH]c2ccccc12)C(=O)N[C@@H](Cc1c[nH]c2ccccc12)C(=O)N[C@@H](Cc1ccccc1)C(=O)N[C@@H](CCC(N)=O)C(=O)N[C@@H](Cc1ccccc1)C(=O)N[C@@H](CCC(N)=O)C(=O)N[C@@H](Cc1ccccc1)C(=O)N[C@@H](CCCCN)C(N)=O | Bacillus subtilis |  |  |  |  | MBC | 140 µM |
| COc1cc(C#CC(=O)c2ccccc2)ccc1O | Pseudomonas aeruginosa |  |  | 10 µM, 24 h | baseline: untreated | pyocyanin production | 30% |
| CC1NC(=O)C(C(=O)NC(C(=O)NC2C(=O)N3C2SC(C)(C)C3C(=O)O)c2ccccc2)=C1O (stereo not drawn) | Escherichia coli | broth microdilution | Keio mutant JW0587-1 | 18 h, enterobactin-related gene |  | MIC | 100 µg/mL (≈ 205 µM) |
| COc1ccc2c(ccc3oc([N+](=O)[O-])c(OC)c32)c1 | Mycobacterium marinum | REMA | ATCC BAA-535 |  |  | MIC90 | > 32 µg/mL |
| C[C@H]1CN(c2n[nH]c3nc(N[C@H]4CC[C@H](NS(=O)(=O)CCC(F)(F)F)CC4)ncc23)CCO1 | Small ribosomal subunit protein uS3 (Homo sapiens, UniProt P23396) | Kinobeads competition, item: RPS3 |  | 20 µM, unit not given | baseline: vehicle | remaining binding | 1.16 |
| O=C(NNc1ccc(Cl)cc1)c1nnc(C23CC4CC(CC(C4)C2)C3)o1 | Botryosphaeria dothidea | fungal growth, inhibitor |  | 50 µg/mL |  | inhibition | 100% |
| CC[C@H](C)[C@H](NC(=O)[C@H](Cc1ccccc1)NC(=O)[C@@H](NC(=O)[C@H](CO)NC(=O)[C@@H](N)CCCNC(=N)N)[C@@H](C)CC)C(=O)N[C@@H](CCCCN)C(=O)N[C@@H](Cc1ccc(O)cc1)C(=O)N[C@@H](CCCCN)C(=O)N[C@@H](CO)C(=O)N[C@@H](CCCCN)C(=O)N1CCC[C@H]1C(=O)N[C@@H](Cc1ccccc1)C(=O)N[C@@H](CS)C(=O)N[C@@H](CCC(=O)O)C(=O)N[C@@H](CCCCN)C(=O)N[C@@H](CC(C)C)C(=O)N[C@@H](CC(C)C)C(=O)N[C@@H](CO)C(=O)N[C@@H](Cc1c[nH]c2ccccc12)C(=O)N[C@H](C(=O)N[C@@H](CCCCN)C(=O)N[C@@H](CO)C(=O)O)C(C)C | Micrococcus luteus |  | NCTC 2665 |  |  | MBC | 8 µg/mL |
| C=C(CN(C(=O)c1c(C(F)F)nn(C)c1F)C1CC1)c1ccc(Cl)cc1Cl | Alternaria alternata |  |  | 1.56 mg/L |  | colony diameter | 8 mm and 7 mm |
| O=C(NNc1ccc(Cl)c(Cl)c1)c1nnc(CC23CC4CC(CC(C4)C2)C3)o1 | Botryosphaeria dothidea | fungal growth, inhibitor |  | 50 µg/mL |  | inhibition | 100% |
| COc1cc[nH]c1/C=C1\C(=O)Nc2ccc([N+](=O)[O-])c(N3CC[C@@H](O)C3)c21 | human cytomegalovirus | western blot densitometry, item: pp28 | HFF, AD169 | 0.01 µM | baseline: DMSO | fold decrease in protein level | ~4 fold |
| CO[C@H]1C[C@@H]2CC[C@@H](C)[C@@](O)(O2)C(=O)C(=O)N2CCCC[C@H]2C(=O)O[C@H]([C@H](C)C[C@@H]2CC[C@@H](OC(=O)NCCOCCOCCOCCOCCOCCOCCOCCOCCC(=O)N3CCc4cc(Cn5nc(-c6ccc7oc(N)nc7c6)c6c(N)ncnc65)ccc4C3)[C@H](OC)C2)C[C@@H](O)[C@H](C)/C=C(\C)[C@@H](O)[C@@H](OC)C(=O)[C@H](C)C[C@H](C)/C=C/C=C/C=C/1C |  | phase 1 dose escalation | advanced solid tumour patients | intravenous, 10 mg weekly, any grade |  | any TEAE incidence | 100% |
| C=CC[C@@H]1c2ccc(OC)c(OC)c2CN2CCc3cc4c(cc3[C@H]12)OCO4 | Staphylococcus aureus |  | P2rx7 A312V/A312V mice, skin wound infection | dose not given, day 4 | baseline: day 0 | relative wound size | 0.66 and 0.98 and 0.42 and 0.99 and 0.92 |

| SMILES | target or system | assay | test system | setting | how to read | measurement | result |
| --- | --- | --- | --- | --- | --- | --- | --- |
| CN1CCN(S(=O)(=O)c2cc([N+](=O)[O-])ccc2N(CCOS(C)(=O)=O)CCOS(C)(=O)=O)CC1 | Homo sapiens | cell viability, resazurin or CellTiter-Glo | sample C BCP-ALL PDX cells, ex vivo | 48 h |  | IC50 | 47.3 nM |
| Cn1c(=O)ccc2ccc(F)c(CCNC[C@H]3CN(c4cnc5c(n4)NC(=O)CO5)C(=O)O3)c21 | Neisseria gonorrhoeae |  |  |  |  | MIC90 | < 0.015 µg/mL |
| Nc1ncnc2c1ncn2[C@@H]1O[C@@H]2COP(=O)(O)O[C@H]3[C@@H](O)[C@H](n4cnc5c(=O)[nH]cnc54)O[C@@H]3COP(=O)(O)O[C@H]2[C@H]1O | West Nile virus | RNA sequencing Reactome analysis, item: Deubiquitination (R-HSA-5688426) | HFF-1 | concentration not given, upregulated pathways, with: West Nile virus infection | baseline: WNV-infected without compound | fold enrichment | 2.28 |
| OC(Cn1cncn1)(Cn1cncn1)c1ccc(F)cc1F | Candida tropicalis | broth microdilution |  |  |  | MLC | 16 ± 2 µg/mL (≈ 52.2 µM) |
| CC[C@H](C)[C@H]1O[C@]2(CC[C@@H]1C)C[C@@H]1C[C@@H](C/C=C(\C)[C@@H](O[C@H]3C[C@H](OC)[C@@H](O[C@H]4C[C@H](OC)[C@@H](O)[C@H](C)O4)[C@H](C)O3)[C@@H](C)/C=C/C=C3\CO[C@@H]4[C@H](O)C(C)=C[C@@H](C(=O)O1)[C@]34O)O2 | Brugia malayi |  | adult female worms | 3 µM, 24 h |  | motility | 34 ± 7.3% |
| CNCC(=O)N[C@@H](CO)C(=O)N[C@H]1[C@H](O)[C@@H](O)[C@H](n2ccc(N)nc2=O)O[C@@H]1C(N)=O | Cucumber mosaic virus |  |  | 500 µg/mL |  | inactivation activity | 77% and 70% and 75% |
| CC[C@H](C)[C@H](NC(=O)[C@H](C)NC(=O)[C@H](CCCCN)NC(=O)[C@H](CC(C)C)NC(=O)[C@H](C)NC(=O)[C@@H](NC(=O)[C@H](Cc1c[nH]cn1)NC(=O)[C@H](CC(C)C)NC(=O)[C@@H](NC(=O)[C@@H](NC(=O)[C@H](CCCCN)NC(=O)[C@H](C)NC(=O)[C@H](C)NC(=O)[C@H](CO)NC(=O)[C@H](CCCCN)NC(=O)[C@H](Cc1ccccc1)NC(=O)[C@@H](NC(=O)[C@H](CCCCN)NC(=O)[C@H](CC(C)C)NC(=O)[C@H](Cc1ccccc1)NC(=O)[C@H](CO)NC(=O)[C@H](CCCCN)NC(=O)[C@H](Cc1c[nH]c2ccccc12)NC(=O)[C@H](CCCCN)NC(C)=O)[C@@H](C)O)[C@@H](C)O)C(C)C)[C@@H](C)O)C(=O)N[C@@H](CO)C(=O)N[C@@H](CO)C(N)=O | Klebsiella pneumoniae |  | ATCC 1705 |  |  | MIC50 | 16 µg/mL (≈ 5.45 µM) |
| Cl.N=C(CC(O)c1cc2c(F)cc(F)cc2c2cc(C(F)(F)F)ccc12)Nc1ccc(Br)cc1 (stereo not drawn) | Plasmodium berghei | Peters suppressive test | ANKA, infected mice | oral, 4 x 10 mg/kg, day 4 | baseline: untreated control | parasitemia reduction | 99.7% |
| Cn1cc(NC(=O)c2cc(NC(=O)CN=C(N)N)cn2C)cc1C(=O)NCCC(=N)N | Bacillus subtilis | bacterial cytological profiling | ATCC 6633 | concentration not given |  | cell area | 2.41 µm² and 2.47 µm² and 2.27 µm² |
| CC[C@H](C)[C@@H]1NC(=O)[C@@H]2CCCN2C(=O)[C@H](CC(C)C)NC(=O)[C@H](CC(C)C)NC(=O)CNC(=O)[C@@H](NC(=O)[C@@H](NC(=O)[C@H](CC(=O)O)NC(=O)CNC(=O)[C@@H](NC(=O)[C@H](C)NC(=O)CNC(=O)[C@H](CCCCN)NC(=O)[C@H](CC(C)C)NC(=O)[C@H](CC(C)C)NC(=O)[C@H](CCCCN)NC(=O)CNC(=O)[C@@H](NC(=O)[C@@H](N)CC(C)C)C(C)C)C(C)C)C(C)C)CSSC[C@@H](C(=O)O)NC1=O |  | RNA-seq, item: Aoah mRNA | mouse traumatic brain injury, frontal cortex and hippocampus | dose not given | baseline: TBI plus compound vs TBI | log2 fold change | -1.96 |
| Cl.N/C(CC(O)c1cc2c(F)cc(F)cc2c2cc(C(F)(F)F)ccc12)=N\c1ccc(F)cc1 (stereo not drawn) | Plasmodium berghei | Peters test | ANKA, mice | oral, 4 x 3 mg/kg |  | mean survival time | 20 days |
| C[C@H]1COCCN1c1nc(NCc2cccnc2C(F)(F)F)c2cccnc2n1 | Brugia malayi |  | SCID mouse | x14d dosing, 6 weeks post-treatment |  | mice with adult worms | 80% |
| CCCCc1ccc(CNc2nc(N(C)C)nc(N(C)C)c2/N=N/c2ccc(Cl)cc2)cc1 | Plutella xylostella | leaf dipping |  | 25 mg/L |  | mortality | 76.7% |
| CNC(=O)c1cc(Cl)cc(C)c1NC(=O)c1cc(Br)nn1-c1ncccc1Cl | Plutella xylostella |  | Raphanus sativus field | 25 ppm, 72 h, 5% water-dispersible granule |  | larval survival | 8.6% |
| Cl.N=C(CC(O)c1cc2c(F)cc(F)cc2c2cc(C(F)(F)F)ccc12)Nc1ccc(F)c(F)c1 (stereo not drawn) | Plasmodium berghei | Peters suppressive test | ANKA, infected mice | oral, 4 x 3 mg/kg, day 4 | baseline: untreated control | parasitemia reduction | 99.8% |
| COc1cc(Nc2ncc(F)c(Nc3ccc4c(n3)NC(=O)C(C)(C)O4)n2)cc(OC)c1OC | SSTR4 (Homo sapiens, UniProt P31391) |  |  |  |  | IC50 | > 10000 nM |
| CS(=O)(=O)CCCn1c(Cn2c(=O)n(CC(F)(F)F)c3ccncc32)cc2cc(Cl)ccc21 | respiratory syncytial virus | RT-qPCR | hospitalized infants 1-24 months, nasal swab | oral, 6, 4.5 or 3 mg/kg daily, day 6, mid dose by age cohort | baseline: placebo | LS mean difference vs placebo | -1.78 log10 copies/mL |
| COc1c(CCC[P+](c2ccccc2)(c2ccccc2)c2ccccc2)cc2c(c1OC)OCO2.[I-] | SK-MEL-2 | SRB |  |  |  | LC50 | -4.17 log M |
